Measurements from different studies.
Protocols differ between the studies behind these lines. Values joined by “and” are separate records of one study, mostly repeats; a detail may differ. ± marks the error that the study gave. Values after ≈ are worked out from the molar mass of the structure shown.

Structure (SMILES)	target or system	assay	test system	conditions	how to read	endpoint	result
CCOc1c([C@H](C)n2nc(C)c3c(N)ncnc32)cc(Cl)c(F)c1[C@@H]1CNC(=O)C1	–	–	rat plasma	1600 ng/mL, three freeze-thaw cycles	relative to: nominal concentration	stability relative error	-8.9%
CC(C)n1c(Nc2cccnc2)nc2cnc(Nc3ccc(N4CCN(C)CC4)cc3)nc21	–	refers to: white blood cell count elevated	healthy male subjects	oral, 100 mg, study, together with: itraconazole	–	subjects with adverse event	0%
C[C@H](CCC(=O)O)[C@H]1CC[C@H]2[C@@H]3CC[C@@H]4C[C@H](OS(=O)(=O)O)CC[C@]4(C)[C@H]3CC[C@]12C	–	–	human, plasma	endogenous baseline diurnal	relative to: daily mean concentration	relative peak deviation	6.69 ± 1.87%
C=CC[C@@H]1/C=C(\C)C[C@H](C)C[C@H](OC)[C@H]2O[C@@](O)(C(=O)C(=O)N3CCCC[C@H]3C(=O)O[C@H](/C(C)=C/[C@@H]3CC[C@@H](O)[C@H](OC)C3)[C@H](C)[C@@H](O)CC1=O)[C@H](C)C[C@@H]2OC	–	–	kidney transplant recipients, CYP3A5*1 carriers, whole blood	oral, dose not given, limited sampling	–	dose-normalized AUC(0-12h)	94.4 ng·h/mL
c1csc(CNc2cc[nH]n2)c1	human peripheral blood lymphocytes (female)	–	–	2000 µg/mL, 4 h, repeat, together with: without S9	–	cells with structural aberrations	5%
CC(=O)N[C@H]1CC[C@H](NC(=O)CN2CCN(c3nncc(-c4ccc(C)cc4)n3)CC2)CC1	–	–	healthy human, plasma	oral, 100 mg single dose	relative to: female over male	AUC0-last ratio	1.2
C=CC(=O)NC1CCN(c2ncc3ncnc(Nc4ccc(Oc5ccc6c(c5)ncn6C)c(C)c4)c3n2)CC1	–	–	human, male	oral, 240 mg, treatment-related adverse event	–	participants with nausea	6.3%
C[C@@H](Oc1ccc(S(C)(=O)=O)cc1C(=O)N1C[C@@H]2C[C@]2(c2cc(C(F)(F)F)on2)C1)C(F)(F)F	–	–	human	oral plus intravenous microtracer, dose not given	–	subjects with related adverse events	33.3%
O=C1CC[C@H](N2Cc3cc(N4CCN(CC5CCN(c6ccc([C@@H]7c8ccc(O)cc8CC[C@@H]7c7ccccc7)cc6)CC5)CC4)ccc3C2=O)C(=O)N1	–	rapid equilibrium dialysis	SD rat blood	2.5 µM, 6 h	–	unbound fraction in blood	0.065
COCC(=O)N1CCC[C@H](C(=O)NCc2nc(-c3ccccc3)cs2)C1	–	–	Sprague-Dawley rat, male, plasma	intravenous, 1 mg/kg	–	unbound hepatic CLint	19 mL/min/kg
Cc1nc(-c2ccc(OCC(C)C)c(C#N)c2)sc1C(=O)O	–	–	KM mouse, chronic hyperuricaemia model, serum	dose not given	–	ALT	58.4 U/L and 63.6 U/L and 67.8 U/L and 59 U/L and 81.8 U/L
C[C@@H]1CCO[C@H]2Cn3cc(C(=O)NCc4ccc(F)cc4F)c(=O)c(O)c3C(=O)N12	–	population PK, post-hoc	children, 14 to <20 kg, plasma	oral, 15 mg dispersible tablet, 24 h, steady state, geometric mean	–	plasma concentration	428 ng/mL
CCc1c(-c2ccccc2)c(-c2ccccc2)nn1-c1ccccc1-c1cccc(OCC(=O)O)c1	–	–	Sprague-Dawley rat	intravenous, dose not given	–	Tlast	8 h
Oc1ccc(/C=C/c2cc(O)cc(O)c2)cc1	–	–	rat, azoxymethane-injected, blood at sacrifice	10 mg/kg	–	glycated albumin	1.9% and 1.8%
NC(=O)c1cnc2[nH]ccc2c1N[C@@H]1[C@@H]2CC3C[C@H]1C[C@@](O)(C3)C2	–	CD8+ memory T cells, flow cytometry	Caucasian humans, peripheral blood	20 mg single dose	relative to: baseline	percent change	0.07%
C[C@H](CCC(=O)NCCS(=O)(=O)O)[C@H]1CC[C@H]2[C@@H]3CC[C@@H]4C[C@H](OS(=O)(=O)O)CC[C@]4(C)[C@H]3CC[C@]12C	–	–	human, plasma	endogenous control diurnal	relative to: daily mean concentration	relative peak deviation	81.4 ± 14.2%
COc1cccc(OC)c1NS(=O)(=O)c1ccc(N/C=C2\C(=O)Nc3ccc4ncsc4c32)cc1	CDK2 (Homo sapiens, UniProt P24941)	average of ITC, Octet and Thermofluor	–	untagged protein	–	Kd	1.89 µM
Cc1c(C(=O)O)ccc2c3n(nc12)[C@@H]1[C@H](C3)N(CC2CC2)[C@@]2(C(=O)Nc3cc(Cl)ccc32)[C@H]1c1cccc(Cl)c1F	–	–	female BALB/c nude mice, SJSA-1 xenograft, plasma	oral, 2 mg/kg once daily, 2 h, mean	–	plasma concentration	2180 nM
COc1cc(C(=O)N2CCC3(CC2)CC(=O)c2c(cnn2C(C)C)C3)cc(-c2ccc(C(=O)O)cc2)n1	–	–	human, fasting serum	100 mg once daily, day 13, adjusted geometric mean	–	total cholesterol change from baseline	-10.1%
CO[C@H]1C[C@@H]2CC[C@@H](C)[C@@](O)(O2)C(=O)C(=O)N2CCCC[C@H]2C(=O)O[C@H]([C@H](C)C[C@@H]2CC[C@@H](OC(=O)NCCOCCOCCOCCOCCOCCOCCOCCOCCC(=O)N3CCc4cc(Cn5nc(-c6ccc7oc(N)nc7c6)c6c(N)ncnc65)ccc4C3)[C@H](OC)C2)C[C@@H](O)[C@H](C)/C=C(\C)[C@@H](O)[C@@H](OC)C(=O)[C@H](C)C[C@H](C)/C=C/C=C/C=C/1C	–	–	human patients, plasma	intravenous, 8 mg, cycle 1 day 15	–	unbound Cmax	18.9 nM
CNC(=O)c1ccc(-c2cnc3ncc(Cc4ccc5ncccc5c4)n3n2)cc1F	–	–	Japanese patients	oral, 400 mg twice daily, any grade	–	ILD patients	1%
Cc1cc(Nc2ccc(S(F)(F)(F)(F)F)cc2)n2nc(C(C)(F)F)nc2n1	Plasmodium falciparum	12-lead ECG	malaria patients	oral, 400 mg, increase above 60 ms	–	patients with QTcB increase	0%
Cn1cc(-c2ccc(-c3cncc(Cl)c3N3CCC4(CCNC4=O)CC3)cc2)cn1	COLO 205	gene expression, microarray, refers to: CCRL2 mRNA	–	concentration not given, 2 h	relative to: untreated cells	log2 fold change	2
N#Cc1ccc2c(c1)[C@H]1CCCN(C(=O)c3ccc4[nH]cnc4c3)[C@H]1C2	–	–	human, female	40 mg, end of trial	–	DHEA-S level	6 µmol/L
Cn1cnc2c(F)c(Nc3ccc(Br)cc3Cl)c(C(=O)NOCCO)cc21	–	population PK model	human, plasma	oral, transit compartment absorption model	relative to: fed over fasted	relative bioavailability	0.91

Structure (SMILES)	target or system	assay	test system	conditions	how to read	endpoint	result
CC(C)[C@H](NC(=O)[C@H](Cc1ccc(O)cc1)NC(=O)[C@H](Cc1ccc(O)cc1)NC(=O)[C@@H]1CCCN1C(=O)[C@H](CCC(=O)O)NC(=O)[C@H](CCC(=O)O)NC(=O)[C@H](Cc1c[nH]c2ccccc12)NC(=O)[C@@H]1CCCN1C(=O)[C@@H](NC(=O)[C@H](CCC(N)=O)NC(=O)c1ccc2c(c1)C(=O)OC21c2ccc(O)cc2Oc2cc(O)ccc21)C(C)C)C(=O)N[C@H](C(=O)N[C@@H](CCCCN)C(=O)N[C@@H](CCCCN)C(=O)N[C@@H](CO)C(=O)N[C@@H](CO)C(=O)NCC(=O)NCC(N)=O)C(C)C	–	–	human, plasma	intravenous infusion, 40 mg, predose 0 min, day 1	–	total plasma concentration	not detected
CC(C)(C(=O)N1CCOc2c(C#N)cncc2C1)C(F)F	–	refers to: haematochezia	human, both sexes	oral, 20 mg once daily, 14 days, multiple ascending dose	–	subjects with TEAE	0%
C=CC[C@@H]1/C=C(\C)C[C@H](C)C[C@H](OC)[C@H]2O[C@@](O)(C(=O)C(=O)N3CCCC[C@H]3C(=O)O[C@H](/C(C)=C/[C@@H]3CC[C@@H](O)[C@H](OC)C3)[C@H](C)[C@@H](O)CC1=O)[C@H](C)C[C@@H]2OC	–	–	rhesus monkey kidney transplant, blood	subcutaneous, 0.1 mg/kg	–	trough level	8 to 12 ng/mL
CCc1cc(C(=O)NC)c2nccc(N3CCc4c(cc(Cn5ccnc5)cc4-c4cn(C)nc4C(F)(F)F)C3=O)c2c1	–	–	Sprague Dawley rats	oral, 100 mg/kg once daily, 7 days	–	mean corpuscular haemoglobin	20.1 ± 0.53 pg
CC(C)[C@H](C(=O)Nc1ccc(C(=O)NO)cc1)c1ccccc1	–	–	whole blood	100 ng/mL, 5 h, 4 °C, stability on ice	–	measured concentration	112 ng/mL
O=[N+]([O-])c1cn2c(n1)OC[C@@H](OCc1ccc(N3CCCCC3)cc1)C2	–	–	aqueous buffer	pH 7.4	–	aqueous solubility	4.9 µg/mL (≈ 13.7 µM)
CNCc1ccc(-c2[nH]c3cc(F)cc4c3c2CCNC4=O)cc1	–	refers to: headache	human patients	oral, 600 mg twice daily, grade 4	–	patients with adverse event	0%
CC(C)=CC[C@@H](O)C1=CC(=O)c2c(O)ccc(O)c2C1=O	–	–	plasma	25 ng/mL, 3 freeze-thaw cycles at -80 °C	–	measured concentration	22.9 ± 1.11 ng/mL
Cc1cccc(CNC(=O)c2cn(CCNC(=O)c3ccccc3Sc3c([N+](=O)[O-])ncn3C)c3cc4c(cc3c2=O)OC(F)(F)O4)n1	–	–	Sprague-Dawley rat, male, whole blood	intramuscular, 10 mg/kg	–	half-life	10.4 h
CCn1c(SCC(=O)Nc2cccc(C(C)=O)c2)nnc1-c1ccncc1	Cyclin-dependent kinase 2, with cyclin A (CDK2, Homo sapiens, UniProt P24941)	–	–	–	–	Kd	> 100 µM
Cc1ccc([C@@H]2O[C@H](CO)[C@@H](O)[C@H](O)[C@H]2O)cc1Cc1ccc(-c2ccc(F)cc2)s1	–	–	Japanese type 2 diabetes patients	25 mg, day 5, 24 h urine collection	relative to: baseline	urinary chloride excretion change	13.8 mEq
COc1c(C)c2c(c(O[C@@H]3O[C@H](C(=O)O)[C@@H](O)[C@H](O)[C@H]3O)c1C/C=C(\C)CCC(=O)O)C(=O)OC2	–	–	healthy subjects, plasma	oral, 1 g mycophenolate mofetil, together with: isavuconazole	–	AUC(0-last), mean	344 ng·h/mL
CC(C)C[C@H](NC(=O)C[C@H](O)[C@H](CC(C)C)NC(=O)[C@H](Cc1c[nH]cn1)NC(=O)CNC(=O)[C@@H](NC(=O)[C@H](C)NC(=O)[C@H](Cc1c[nH]c2ccccc12)NC(=O)[C@H](CCC(N)=O)NC(=O)[C@@H](Cc1ccccc1)NC(=O)COCCOCCNC(=O)CCC(C(=O)O)N1CCN(CC(=O)O)CCN(CC(=O)O)CC1)C(C)C)C(N)=O (stereo partly shown) [lutetium-177 labelled]	–	–	female BALB/c nu/nu mice, stomach	intravenous, 50 pmol, 24 h	–	tissue uptake	0.06 ± 0.03 %ID/g
COc1ccc2c(c1)CN(C(=O)CCN1CCC(Cc3ccccc3)CC1)CC[S@@+]2[O-]	–	telemetry	conscious male beagle dogs	intravenous, 4 mg/kg, 0.5 h	–	QT interval	214 ± 19 ms
C=CCN1CC(=O)N2[C@@H](Cc3ccc(O)cc3F)C(=O)N(Cc3cccc(N4CC(N5CCN(CC)CC5)C4)n3)C[C@@H]2N1C(=O)NCc1ccccc1	–	–	advanced solid tumour patients	oral, 15 mg twice daily, grade ≥3, dose-escalation	–	treatment-related AST increased	0%
CO[C@H]1C[C@@H]2CC[C@@H](C)[C@@](O)(O2)C(=O)C(=O)N2CCCC[C@H]2C(=O)O[C@H]([C@H](C)C[C@@H]2CC[C@@H](O)[C@H](OC)C2)CC(=O)[C@H](C)/C=C(\C)[C@@H](O)[C@@H](OC)C(=O)[C@H](C)C[C@H](C)/C=C/C=C/C=C/1C	–	–	healthy adult horses	oral, 0.06 mg/kg, 1 h	–	rectal temperature	36.8 ± 0.3 °C
COc1ncc(-c2nc3c(n2C(C)C)[C@H](c2ccc(Cl)cc2)N(c2cc(Cl)cn(C)c2=O)C3=O)c(OC)n1	–	LC-MS/MS	human, plasma	oral, 20 mg, cycle 1 day 14, low-dose arm	–	Cmax	176 ng/mL
CC(C)Oc1c(NC(=O)c2ccc(NC(=O)[C@H](CC(N)=O)NC(=O)c3ccc(NC(=O)c4ccc(C#N)cc4)cc3)cc2)ccc(C(=O)Nc2ccc(C(=O)O)cc2)c1O	Escherichia coli ATCC 25922	–	neutropenic male CD-1 mice, lung	iv then sc, 37.5 mg/kg/day, 24 h after infection, thigh infection model	–	concentration	11.9 ± 4.7 ng/mL
COc1ccc(CNc2nc(-c3ccc(C(=O)O)cc3)nc3c2c2ccccc2n3C)cc1Cl	–	–	NSG mice	dose not given, day 2	–	body weight	25.2 g and 23.2 g and 19.7 g and 22.5 g
CN(C(=O)C(C)(C)c1cc(C(F)(F)F)cc(C(F)(F)F)c1)c1cnc(N2C[C@H]3COCCN3C[C@H]2CO)cc1-c1ccc(F)cc1[14CH3]	–	–	healthy men, toilet tissue	oral, 120 mg, 0 to 480 h	relative to: dose	radioactivity recovered	0.5%
C[C@@H](NC(=O)N1C(=O)[C@H](Cc2ccnc(N)c2)[C@H]1C(=O)O)C1CCCCC1	–	UPLC-MS/MS	healthy adult Chinese volunteers, plasma	continuous intravenous infusion, 1.0 mg/kg/h, day 6 of 5-day infusion, mean	–	elimination rate constant	0.000152 s⁻¹
FC(F)(F)c1ccc(CNc2ccc(Cc3c[nH]c4ncc(Cl)cc34)cn2)cn1	–	refers to: Hypertension	patients with advanced solid tumours	oral, dose not given, grade 1 and 2, possibly related to drug	–	adverse event incidence	13%
CC(C)C[C@H](NC(=O)C[C@H](O)[C@H](CC(C)C)NC(=O)[C@H](Cc1c[nH]cn1)NC(=O)CNC(=O)[C@@H](NC(=O)[C@H](C)NC(=O)[C@H](Cc1c[nH]c2ccccc12)NC(=O)[C@H](CCC(N)=O)NC(=O)[C@@H](Cc1ccccc1)NC(=O)COCCOCCNC(=O)CCC(C(=O)O)N1CCN(CC(=O)O)CCN(CC(=O)O)CCN(CC(=O)O)CC1)C(C)C)C(N)=O (stereo partly shown) [lutetium-177 labelled]	–	–	BALB/c nu/nu mice, female, PC-3 xenograft tumour	intravenous, 100 pmol, 2 h, together with: PA 300 µg	–	tissue uptake	11.9 ± 6.14 %ID/g
[18F]c1ccc(-c2ccc3c(c2)[nH]c2ccncc23)cn1	–	microPET/CT imaging	APP/PS1 mouse, AD model, brain	intravenous, 5 min	–	SUV	1.6 ± 0.499
